Experimental data collected from several papers.
A part holds a random share of what one study measured.

Series 1 — technique: protein binding microarray; molecule type: double-stranded DNA, one strand shown; sample: in vitro; concentration: not given; baseline: not given; direction: higher = stronger binding
Target: Histone acetyltransferase KAT6A, both winged helices, GST fusion (KAT6A, Homo sapiens, UniProt Q92794, residues 1-181)
Notes: 8-mer, flanks averaged, mean of 2 arrays, mostly near background
Residues (chain): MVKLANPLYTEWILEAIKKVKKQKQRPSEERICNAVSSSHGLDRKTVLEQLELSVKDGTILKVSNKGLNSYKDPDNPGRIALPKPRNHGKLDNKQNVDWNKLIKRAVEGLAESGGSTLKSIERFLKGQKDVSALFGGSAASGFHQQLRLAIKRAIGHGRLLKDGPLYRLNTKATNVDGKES
The E-score of `ACTACGTA` is reported as 0.0321.
`AAGTGGCA` has an E-score of -0.174.
`ATCAGACC` has an E-score of 0.00545.
`GCTCATCC` gave an E-score of 0.00334.
`CTTTAACC` gave an E-score of -0.017.
With `AAAGAACC` the E-score was 0.0284.
With `ATGCCCAG` the E-score was -0.176.
For `CGGCAACG`, the E-score was 0.268.
For `GCGGATTA`, the E-score was 0.15.
The E-score of `AATGAAAT` is reported as -0.0827.

Series 2 — technique: aptamer microarray, sandwich; molecule type: DNA with 2'F-ANA; sample: in vitro; concentration: 200 nM; together with: Cy3 exosite-II aptamer, 400 nM; direction: higher = stronger binding; oligonucleotide: GGTTGGTGTGGTTGG
Target: Prothrombin, mature alpha-thrombin (F2, Homo sapiens, UniProt P00734)
Notes: whole 15-mer aptamer, many near background
For `2'F-ANA at 2 7 11 13 14`, “mean fluorescence intensity” read 171 a.u.
`2'F-ANA at 2 5 6 9 10 12 13 15` — result for “mean fluorescence intensity”: 57.5 a.u.
For `2'F-ANA at 1 2 3 4 6 7 8 10 12 13 15`, “mean fluorescence intensity” read 60.6 a.u.
Under “mean fluorescence intensity”, `2'F-ANA at 3 5 9 10 11 12 14 15` is recorded as 56.3 a.u.
`2'F-ANA at 1 3 4 5 7 12 14 15`: “mean fluorescence intensity” 65.1 a.u.
`2'F-ANA at 1 2 3 7 8 9 10 12 13`: “mean fluorescence intensity” 77.5 a.u.
`2'F-ANA at 2 3 4 5 6 11 12 14 15`: “mean fluorescence intensity” 56.4 a.u.
`2'F-ANA at 1 2 5 6 9 10 11 13 14` — result for “mean fluorescence intensity”: 50.1 a.u.

Series 3 — technique: RNA Bind-n-Seq; molecule type: RNA; sample: in vitro; concentration: 200 nM; notes: whole 134-nt RNA, ends assumed; together with: 150 mM LiCl; baseline: input library; direction: higher = stronger binding; library: 7-deaza-guanosine replaces G
Target: Ras GTPase-activating protein-binding protein 1, full length (G3BP1, Homo sapiens, UniProt Q13283)
Chain of UniProt Q13283 (whole entry, looked up): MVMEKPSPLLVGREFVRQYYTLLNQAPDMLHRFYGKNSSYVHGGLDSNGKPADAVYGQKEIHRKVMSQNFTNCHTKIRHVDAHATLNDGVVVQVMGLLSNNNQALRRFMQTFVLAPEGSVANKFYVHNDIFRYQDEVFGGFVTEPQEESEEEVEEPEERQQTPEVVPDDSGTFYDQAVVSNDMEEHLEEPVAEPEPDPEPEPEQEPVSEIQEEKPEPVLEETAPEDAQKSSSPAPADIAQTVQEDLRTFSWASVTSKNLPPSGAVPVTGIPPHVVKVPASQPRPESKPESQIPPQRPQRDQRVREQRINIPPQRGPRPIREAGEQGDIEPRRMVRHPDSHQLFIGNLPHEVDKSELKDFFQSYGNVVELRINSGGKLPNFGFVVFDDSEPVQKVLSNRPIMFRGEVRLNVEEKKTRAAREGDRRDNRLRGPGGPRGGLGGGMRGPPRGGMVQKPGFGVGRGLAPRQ
With `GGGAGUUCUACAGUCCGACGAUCCACAGACAUCACGCACCCACACAGACACAGAGGGAAGGGGUUGGGAUGGGGACAGGGUGCACAGCAGGGCGGGGUAGGACCCCAGCCCCUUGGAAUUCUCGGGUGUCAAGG` the log2 enrichment was 0.374.
With `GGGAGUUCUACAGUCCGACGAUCCAAGUCCUGUGCUACACAUCGUAUGUACCGAAUCGGAAAAGGAAAAGGGGAAAAGGAAAGUAUUAUGUUACGCCGUUCGGAUCUGCACUUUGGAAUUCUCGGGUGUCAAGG` the log2 enrichment was -0.85.
The log2 enrichment of `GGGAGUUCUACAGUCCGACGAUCAAGUCCUGUGCUACACAUCGUAUGUACCGAAUCGGAAAAGGGGAAAAGGGAAAAGGGAAAGUAUUAUGUUACGCCGUUCGGAUCUGCACUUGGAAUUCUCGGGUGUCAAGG` is reported as 0.305.
For `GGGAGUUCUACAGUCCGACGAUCGUCCUGUGCUACACAUCGUAUGUACCGAAUCGGGGAAAAAGGGGAAAGGGGUUUGGGGAAAGUAUUAUGUUACGCCGUUCGGAUCUGCACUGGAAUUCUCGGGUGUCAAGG`, the log2 enrichment was -0.586.
The log2 enrichment of `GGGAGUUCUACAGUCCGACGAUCUAACGUUAGAGGAGGAUCUGAUGGAUAUGGCAGUGGACGUGGAUUUGGGGAUGGCUAUAAUGGGUAUGGAGGAGGACCUGGAGGUGGCAAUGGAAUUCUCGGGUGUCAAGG` is reported as -0.336.
The log2 enrichment of `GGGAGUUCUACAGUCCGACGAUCCCUGUGCUACACAUCGUAUGUACCGAAUCGGGGAAAAAGGGGAAAAAGGGGAAAAAGGGGAAAGUAUUAUGUUACGCCGUUCGGAUCUGCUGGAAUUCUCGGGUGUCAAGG` is reported as 0.921.
`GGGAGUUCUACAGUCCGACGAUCUGGCAGCGGCCAUGGACCGCUUCGUUUGGACCAGCGGCCUCCUGGAGAUCAACGAGACCCUGGUGAUCCAGCAGCGCGGGGUGCGAAUCUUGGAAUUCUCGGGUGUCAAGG` has a log2 enrichment of -0.988.
`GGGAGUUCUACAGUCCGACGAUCGUCCUGUGCUACACAUCGUAUGUACCGAAUCGGGGAAAAAGGGGAAAAAGGGGAGGGGAAAGUAUUAUGUUACGCCGUUCGGAUCUGCACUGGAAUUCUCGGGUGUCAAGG` has a log2 enrichment of 0.0966.
`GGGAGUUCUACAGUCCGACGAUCUGGCCCUGGUGGCAUGCGGGGAGGAAGAGGUGGCCUCAUGGAUCGUGGUGGUCCCGGUGGAAUGUUCAGAGGAGGCCGUGGUGGAGACAGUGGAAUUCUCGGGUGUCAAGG` gave a log2 enrichment of 0.135.
`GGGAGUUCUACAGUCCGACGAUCCUGUGCUACACAUCGUAUGUACCGAAUCGGGCCCCCCCGGGCCCCCCCGGGGCCCCCCCGGAAAGUAUUAUGUUACGCCGUUCGGAUCUGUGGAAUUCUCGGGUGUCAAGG` has a log2 enrichment of -0.947.

Mixed results
For `PhoQ, residues 284 288 289 292 302 303 SLGVVW`, the fold induction was 4.61 (PhoP, residues 12 14 15 18 19 AWHSL (Escherichia coli, UniProt P23836); Sort-seq, measured: YFP reporter; E. coli; PhoQ-PhoP variant library, together with: 10 µM Mg2+; baseline: high Mg2+ state, higher = stronger signaling).

A few entries again (series 1):
`AAGTGGCA` has an E-score of -0.174.
`CTTTAACC` gave an E-score of -0.017.
